Results gathered from unrelated publications.
A part holds a random share of what one study measured. Substitutions count along the parent as printed.

Set 1
Target: ABI1, truncated, D143A, DHFR fusion (Arabidopsis thaliana)
Method: DHFR PCA, deep sequencing
Sample: yeast
Setting: methotrexate growth selection, single substitutions
Together with: (+)-ABA 0.11 µM
Relative to: wild-type fitted maximum
Reading: higher = stronger binding
Parent: PYL1, truncated, DHFR fusion (Arabidopsis thaliana); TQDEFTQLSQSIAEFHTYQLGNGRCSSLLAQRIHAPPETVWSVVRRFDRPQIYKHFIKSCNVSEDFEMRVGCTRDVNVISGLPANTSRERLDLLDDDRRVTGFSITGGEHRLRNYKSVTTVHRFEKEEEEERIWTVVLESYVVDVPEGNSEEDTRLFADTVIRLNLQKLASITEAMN
Substitution | relative binding score
V70Y | 0.613%
D48Y | 3.71%
R49C | 29.2%
R46C | 5.4%
P146S | 7.88%
F15A | 7.43%
V40E | -2.87%
A170F | -21.4%
C25H | -1.53%
F103G | -7.85%
E128M | 20.7%
P146R | 3.09%

Set 2
Target: PABPC1L2, full length, GST fusion (mouse, UniProt A0ABA7IW68)
Method: RNAcompete
Form: RNA
Sample: in vitro
Concentration: 20 nM
Setting: 7-mer, probes averaged, single round
Relative to: mean of 7-mers
Reading: higher = stronger binding
Construct (chain): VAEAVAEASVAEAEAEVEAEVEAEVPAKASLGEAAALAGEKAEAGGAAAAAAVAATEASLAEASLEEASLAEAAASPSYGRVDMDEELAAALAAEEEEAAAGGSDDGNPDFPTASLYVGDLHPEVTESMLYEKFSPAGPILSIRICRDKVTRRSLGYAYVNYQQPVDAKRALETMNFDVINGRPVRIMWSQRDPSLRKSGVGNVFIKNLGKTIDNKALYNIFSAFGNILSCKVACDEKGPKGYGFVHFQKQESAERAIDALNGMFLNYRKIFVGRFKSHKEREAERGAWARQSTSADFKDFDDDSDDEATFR
Strand | 7-mer Z-score
AAGCAAG | 0.287
GUCUGUA | -0.237
ACGGUGC | 0.148
GAGAAUA | 0.282
AAGCCGC | -0.15
GGACCCG | -0.155
UUUGCCC | -0.554
AGAGAGC | 0.00617
UCAGGAA | 0.109
CGAGGUU | -0.226
GCCAACU | -0.289
ACGGCAA | 0.245
CUCAUAA | -0.0446
GGUGACC | 0.0243
UCGCGAC | -0.307
AAUUGCG | 0.186
AUCGGCA | 0.0388

Set 3
Target: Ras GTPase-activating protein-binding protein 1, full length (G3BP1, Homo sapiens, UniProt Q13283)
Sequence of UniProt Q13283 (whole entry, looked up): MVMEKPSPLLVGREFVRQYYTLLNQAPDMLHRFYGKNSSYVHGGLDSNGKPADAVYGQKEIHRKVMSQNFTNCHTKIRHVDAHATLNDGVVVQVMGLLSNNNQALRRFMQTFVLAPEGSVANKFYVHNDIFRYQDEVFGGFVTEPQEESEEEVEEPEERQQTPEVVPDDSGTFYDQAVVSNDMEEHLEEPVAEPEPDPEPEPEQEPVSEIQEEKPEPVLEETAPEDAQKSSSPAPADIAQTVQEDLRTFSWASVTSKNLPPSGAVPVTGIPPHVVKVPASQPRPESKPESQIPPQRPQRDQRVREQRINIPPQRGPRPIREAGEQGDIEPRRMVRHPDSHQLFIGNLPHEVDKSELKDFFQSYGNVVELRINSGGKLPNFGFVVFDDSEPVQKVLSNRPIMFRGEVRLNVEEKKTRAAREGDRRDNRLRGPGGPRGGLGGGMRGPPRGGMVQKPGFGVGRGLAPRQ
Method: RNA Bind-n-Seq
Form: RNA
Sample: in vitro
Concentration: 200 nM
Setting: whole 134-nt RNA, ends assumed
Together with: 150 mM LiCl
Relative to: input library
Reading: higher = stronger binding
Library: 7-deaza-guanosine replaces G
All sequences stand within: GGGAGUUCUACAGUCCGACGAUC … UGGAAUUCUCGGGUGUCAAGG
Strand | log2 enrichment
UCCUCAAGUCCUGUGCUACACAUCGUAUGUACCGAAUCGGUGGUGGAAAGGAAAGUAUUAUGUUACGCCGUUCGGAUCUGCACUUCCAGC | 0.554
UCCUGUGCUACACAUCGUAUGUACCGAAUCGGGUUUGGGAAAAAAAGGGAAAAAAAGGGAAAGUAUUAUGUUACGCCGUUCGGAUCUGCA | 0.243
UCCUGUGCUACACAUCGUAUGUACCGAAUCGGGGAAAAAGGGGUGGGGAAAAAAAGGGGAAAGUAUUAUGUUACGCCGUUCGGAUCUGCA | -1.67
CCUGUGCUACACAUCGUAUGUACCGAAUCGGGGUUUUUUGGGGUUUUUUGGGUUUUUUGGAAAGUAUUAUGUUACGCCGUUCGGAUCUGC | 1.37
UAACUUUAGAGGAGGGUCUGAUGGAUAUGGCAGUGGACGUGGAUUUGGGGAUGGCUAUAAUGGGUAUGGAGGAGGACCUGGAGGUGGCAA | -0.195
UCAAGUCCUGUGCUACACAUCGUAUGUACCGAAUCGGAAAGGGAAAGGAAAGGGAAAGUAUUAUGUUACGCCGUUCGGAUCUGCACUUCC | -0.102
UUCAUUCCCAAGGGAGGCCAUGUCUGGAGAUAGACCUUGAAUUUAAUAAAUUUUAGGCACUAUACCAUUUCAGUGGAGAAAAUUGUUGGG | -2.37
AGUCCUGUGCUACACAUCGUAUGUACCGAAUCGGGAAAAAGGAAAAAGGGAAAAAGGGAAAGUAUUAUGUUACGCCGUUCGGAUCUGCAC | -0.662
UGGAUCAAGAGGAAGUAAAAAGAAUUACCAGUCACAGGCUGACAUUCCCAUUCGGUCUCCCUUUGGUAUUGUGAAAGCAUCCUGGCUACC | 0.45
UCCUGUGCUACACAUCGUAUGUACCGAAUCGGGGUUUGGGGUUUUUUUGGGGUUUGGGGAAAGUAUUAUGUUACGCCGUUCGGAUCUGCA | 0.309
CAUCCUUUGGGCCCCUCAAGGCCUUCAACCUGGUCAAGGACAGUGCCACGGGGCUCUCCAAGGGCUACGCCUUCUGUGAGUACGUGGACA | -0.105

Set 4
Target: CCNB2, cyclin fold, Cln2 fusion (human)
Method: yeast growth competition, sequencing
Sample: yeast
Setting: weak parent motif
Relative to: not given
Reading: higher = stronger binding
Parent: SCAPER docking peptide (human); SNARRSLNFGGST
Substitution | normalised enrichment score
SNARRSLNFGGLT [S12L] | 0.394
SNARRSLNLGGST [F9L] | 0.0646
SNARRSLNFIGST [G10I] | 0.039
SNARRSLNFGGAT [S12A] | 0.654
SNARISLNFGGST [R5I] | 0.235
SNAHRSLNFGGST [R4H] | -0.106
SNARRSLQFGGST [N8Q] | 0.179
SNARRSLNFNGST [G10N] | 0.161
SNARRSLNFVGST [G10V] | -0.788
SNARRSLNFHGST [G10H] | 0.346
SNARRSLNFPGST [G10P] | 0.603
SNARTSLNFGGST [R5T] | 0.0263
SNARRSLNFGGSD [T13D] | 0.258
SNARRSLNFGGIT [S12I] | 0.166
SNARRALNFGGST [S6A] | 0.396
SNARRSLNFQGST [G10Q] | 0.458
SNYRRSLNFGGST [A3Y] | 0.0733
SNARRSLNFGFST [G11F] | 0.207

Set 5
Target: Max-binding protein MNT, bHLH-zipper, MAX partner unstated (MNT, Homo sapiens, UniProt Q99583, residues 220-300)
Method: protein-binding microarray
Form: double-stranded DNA, one strand shown
Sample: in vitro
Concentration: not given
Setting: k-mer, scored over probes, only values ≥0.25
Reading: higher = stronger binding
Residues (chain): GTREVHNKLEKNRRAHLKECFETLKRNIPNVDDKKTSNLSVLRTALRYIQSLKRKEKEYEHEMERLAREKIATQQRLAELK
Strand | E-score
ACCCTCGT | 0.255
ATGCCCAC | 0.275
ACGCGCTG | 0.304
GCCCACGA | 0.286
CACCCGCC | 0.309
AAAACATG | 0.288
CGCATGCG | 0.459
ACGCTGTC | 0.298
CCCCGCCC | 0.384
GCGCGTGA | 0.393
AACACGAG | 0.426
AAACGCAT | 0.258
GCCACACC | 0.277
ATTGCGTG | 0.268
CAGGCATG | 0.322
CAAGCGTG | 0.391
CTCCACGA | 0.283
CATGTATC | 0.298
GTGACTCA | 0.282

Some of these lines once more (set 4):
Substitution | normalised enrichment score
SNARRSLNFVGST [G10V] | -0.788
SNAHRSLNFGGST [R4H] | -0.106
SNARRSLNFQGST [G10Q] | 0.458
SNARISLNFGGST [R5I] | 0.235
SNARRSLNFGGLT [S12L] | 0.394
SNARRSLNFPGST [G10P] | 0.603
SNARRALNFGGST [S6A] | 0.396
SNARRSLNFGGSD [T13D] | 0.258
SNARRSLNFGFST [G11F] | 0.207
